Results of several laboratories.
Parts stem from different laboratories: compare values within a part only. Positions count from the first letter of the parent shown.

Set 1
Target: Sal-like protein 4, full length isoform B (SALL4, Homo sapiens, UniProt Q9UJQ4-2, residues 1-616)
Method: universal PBM
Molecule type: double-stranded DNA, one strand shown
Sample: in vitro
Tested at: not given
Notes: 8-mer, flanks averaged, mean of replicates
Reading: higher = stronger binding
Residues (chain): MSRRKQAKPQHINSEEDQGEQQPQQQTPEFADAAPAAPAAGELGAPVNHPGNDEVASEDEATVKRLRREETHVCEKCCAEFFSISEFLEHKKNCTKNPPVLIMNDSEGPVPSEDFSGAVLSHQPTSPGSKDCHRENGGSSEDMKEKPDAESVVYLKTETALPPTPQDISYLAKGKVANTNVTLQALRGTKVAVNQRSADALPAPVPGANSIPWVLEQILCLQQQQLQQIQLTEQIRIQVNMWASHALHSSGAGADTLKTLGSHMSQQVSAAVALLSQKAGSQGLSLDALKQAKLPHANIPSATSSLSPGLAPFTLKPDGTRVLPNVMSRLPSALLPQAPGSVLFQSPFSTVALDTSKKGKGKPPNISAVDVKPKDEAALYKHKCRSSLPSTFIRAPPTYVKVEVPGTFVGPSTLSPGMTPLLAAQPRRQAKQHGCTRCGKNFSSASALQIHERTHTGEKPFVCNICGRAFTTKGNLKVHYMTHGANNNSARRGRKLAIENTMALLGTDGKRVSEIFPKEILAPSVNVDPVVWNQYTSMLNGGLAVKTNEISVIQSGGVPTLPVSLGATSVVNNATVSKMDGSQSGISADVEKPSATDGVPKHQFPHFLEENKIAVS
Sequence	E-score
ACCTTAGC	-0.056
CCAGCTAC	-0.172
ATAATCTG	0.211
AGCGGTGA	-0.0999
CCTTCCTC	-0.157
CGTATCGA	0.0333
GGCCATTA	-0.0203
ATGGAAAG	0.137
CTCGCTTA	0.0476

Set 2
Target: CCND3, cyclin fold, Cln2 fusion (human)
Method: yeast growth competition, sequencing
Sample: yeast
Notes: weak parent motif
Relative to: not given
Reading: higher = stronger binding
Starting sequence: AKAP12 docking peptide (human); GSPLKKLFTSTGL
Change	normalised enrichment score
GSPLRKLLTSTGL [K5R F8L]	-0.366
GSPLAKLFTSTGL [K5A]	0.0117
GSPLKKLATSTGL [F8A]	0.00547
ASPLKKLFTSTGL [G1A]	0.0745
GSPAKKLFTSTGL [L4A]	0.0589
GSPLKKLFTSTAL [G12A]	-0.0338
GSPLKKLFASTGL [T9A]	0.125

Set 3
Target: ABI1, truncated, D143A, DHFR fusion (Arabidopsis thaliana)
Method: DHFR PCA, deep sequencing
Sample: yeast
Notes: methotrexate growth selection, single substitutions
With: (+)-ABA 1.4 µM
Relative to: wild-type fitted maximum
Reading: higher = stronger binding
Starting sequence: PYL1, truncated, DHFR fusion (Arabidopsis thaliana); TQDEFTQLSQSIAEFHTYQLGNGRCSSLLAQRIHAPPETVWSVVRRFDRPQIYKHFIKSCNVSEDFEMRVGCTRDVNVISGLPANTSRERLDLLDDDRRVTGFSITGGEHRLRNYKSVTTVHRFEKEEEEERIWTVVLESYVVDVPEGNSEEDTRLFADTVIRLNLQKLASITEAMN
Change	relative binding score
N177R	30.9%
F47C	-1.77%
G102A	24.2%
D144M	-15.7%
S140Q	17.6%
L156C	61.8%
T101Y	19.6%
P83L	-2.4%
S42L	-2.18%

Further values, each from its own experiment
Molecule	target	assay	test system	conditions	how to read	endpoint	result
PhoQ, residues 284 288 289 292 302 303 GLASVI	PhoP, residues 12 14 15 18 19 IQSYL (Escherichia coli, UniProt P23836)	Sort-seq, refers to: YFP reporter	E. coli	PhoQ-PhoP variant library, with: 10 µM Mg2+	relative to: high Mg2+ state, higher = stronger signaling	fold induction	8.34

A few entries again (set 2):
Change	normalised enrichment score
GSPLKKLATSTGL [F8A]	0.00547
ASPLKKLFTSTGL [G1A]	0.0745
GSPAKKLFTSTGL [L4A]	0.0589
